Assay results pooled from the literature.
Lines come from different studies, so protocols differ. ± gives the spread as reported.
B1: enzyme Y7F (Streptomyces parvus, UniProt A0A7K3RVR3); chain MYVPEQFRPRDASWTLELIRSNPLALLVTNGPQHPWATHVPVLFAEEPDGPEGPDGLDATGDDLVGRRLLGHLNLMNPHWEALAGAGHALLVFQGPGSYVSPTVYETAPAAPTWDFTSVHVHGALRLIDDPDDLRKIVQATVRAYEREVGTDWDMSESLEYFERLLPGVRGFEIKIESVDSMFKLSQEQLPETVTKVIDSFRRSDGGRRQELATMIERAASD
B2: enzyme K184A (Streptomyces parvus, UniProt A0A7K3RVR3); chain MYVPEQYRPRDASWTLELIRSNPLALLVTNGPQHPWATHVPVLFAEEPDGPEGPDGLDATGDDLVGRRLLGHLNLMNPHWEALAGAGHALLVFQGPGSYVSPTVYETAPAAPTWDFTSVHVHGALRLIDDPDDLRKIVQATVRAYEREVGTDWDMSESLEYFERLLPGVRGFEIKIESVDSMFALSQEQLPETVTKVIDSFRRSDGGRRQELATMIERAASD

CC(C)C[C@@H]1NC(=O)[C@H](CC(=O)O)NC(=O)CNC(=O)[C@H](CCCNC(=N)N)NC(=O)[C@H](Cc2ccccc2)NC(=O)[C@H](CCCCNC(=O)CCc2cn(CCCNC(=O)CN3CCN(CC(=O)O)CCN(CC(=O)O)CCN(CC(=O)O)CC3)nn2)N(C)C(=O)[C@H]2CCCN2C(=O)[C@H](Cc2ccccc2)NC(=O)[C@H](C)NC1=O — tissue-to-tissue ratio (female CB17 SCID mice, tumour and pancreas; intravenous, dose not given, 90 min, 177Lu-labelled; baseline: tumour over pancreas): 8.1 ± 4.1
CC[C@H](C)[C@H](NC(=O)[C@H](CO)NC(=O)[C@H](Cc1ccc(O)cc1)NC(=O)[C@H](Cc1ccc(O)cc1)NC(=O)[C@H](CC(N)=O)NC(=O)CNC(=O)[C@H](CO)NC(=O)[C@H](Cc1ccc(O)cc1)NC(=O)[C@H](CO)NC(=O)[C@H](CO)NC(=O)[C@H](CC(N)=O)NC(=O)COCCOCCNC(=O)CN1CCN(CC(=O)O)CCN(CC(=O)O)CCN(CC(=O)O)CC1)C(=O)N[C@@H](CC(C)C)C(N)=O [copper-64 labelled] — tissue uptake (dynamic PET; KPC mouse Ptf1a-CreER tdTomato, metastases; intravenous, dose not given, 4.5 min, 84 d after tamoxifen): 15.7 %ID/mL
N=C(N)NCCC[C@@H]1NC(=O)[C@H](CCCCNC(=O)CCC(NC(=S)Nc2ccc(CC3CN(CC(=O)O)CCN(CC(=O)O)CCN(CC(=O)O)CCN3CC(=O)O)cc2)C(=O)NCCCC[C@@H]2NC(=O)[C@@H](Cc3ccc(O)cc3)NC(=O)[C@H](CC(=O)O)NC(=O)CNC(=O)[C@H](CCCNC(=N)N)NC2=O)NC(=O)[C@@H](Cc2ccc(O)cc2)NC(=O)[C@H](CC(=O)O)NC(=O)CNC1=O (stereo partly drawn) [scandium-44 labelled] — tissue uptake (PET imaging; female athymic nude mouse, liver; intravenous, 2 h, U-87 MG xenograft, together with: cRGD 50 mg/kg blocking): 0.11 ± 0.02 %ID/g
O=C(O)CC[C@H](NC(=O)N[C@@H](CCCCNC(=O)[C@H](Cc1ccc2ccccc2c1)NC(=O)[C@H]1CC[C@H](CNC(=O)CNC(=O)CNC(=O)CNC(=O)CN2CCN(CC(=O)O)CCN(C(CCC(=O)NCCC[P+](c3ccccc3)(c3ccccc3)c3ccccc3)C(=O)O)CCN(CC(=O)O)CC2)CC1)C(=O)O)C(=O)O (stereo partly drawn) [terbium-161 labelled] — logD (pH 7.4): -2.75 ± 0.09
CC(C)C[C@@H]1NC(=O)[C@H](CC(=O)O)NC(=O)CNC(=O)[C@H](CCCNC(=N)N)NC(=O)[C@H](Cc2ccccc2)NC(=O)[C@H](CCCCNC(=O)CCc2cn(CCCNC(=O)CCC(C(=O)O)N3CCN(CC(=O)O)CCN(CC(=O)O)CCN(CC(=O)O)CC3)nn2)N(C)C(=O)[C@H]2CCCN2C(=O)[C@H](Cc2ccccc2)NC(=O)[C@H](C)NC1=O (stereo partly drawn) — tissue-to-tissue ratio (female CB17 SCID mice, tumour and blood; intravenous, dose not given, 90 min, 177Lu-labelled; baseline: tumour over blood): 7 ± 1.6
B1 (enzyme Y7F) — Km (N[C@@H](CCCNO)C(=O)O; steady-state kinetics; pH 8, 25 °C, together with: heme): 480 µM
CN[C@H](CC(C)C)C(=O)N[C@H]1C(=O)N[C@@H](CC(N)=O)C(=O)N[C@H]2C(=O)N[C@H]3C(=O)N[C@H](C(=O)N[C@H](C(=O)N[C@@H](CCCNC(=N)N)C(N)=O)c4cc(O)cc(O)c4-c4cc3ccc4O)[C@H](O)c3ccc(c(Cl)c3)Oc3cc2cc(c3O[C@@H]2O[C@H](CO)[C@@H](O)[C@H](O)[C@H]2O[C@H]2C[C@](C)(NCc3ccc(OCc4cn(CC(=O)N[C@H](C(=O)N[C@@H](CCN)C(=O)N[C@H]5CCNC(=O)[C@H]([C@@H](C)O)NC(=O)[C@H](CCN)NC(=O)[C@H](CCN)NC(=O)[C@H](CC(C)C)NC(=O)[C@@H](CC(C)C)NC(=O)[C@H](CCN)NC5=O)[C@@H](C)O)nn4)c(OC)c3)[C@H](O)[C@H](C)O2)Oc2ccc(cc2Cl)[C@H]1O — hemolysis (sheep erythrocytes; 512 µg/mL, 37 °C; baseline: Triton X-100): < 5%
B2 (enzyme K184A) — Km (N[C@@H](CCCNO)C(=O)O; steady-state kinetics; pH 8, 25 °C, together with: heme): 1720 µM
C[C@@H](O)[C@@H]1NC(=O)[C@@H](NC(=O)CCOCCOCCOCCOCCNC(=O)c2ccc(NN)nc2)CSSC[C@@H](C(=O)O)NC(=O)[C@H](Cc2c[nH]cn2)NC(=O)[C@H](CO)NC(=O)[C@H](Cc2ccccc2)NC(=O)[C@@H]2CCCN2C(=O)[C@H](CO)NC(=O)[C@@H]2CCCN2C1=O [technetium-99m labelled] — tissue uptake (mouse, HCT-116 xenograft, kidney; intravenous, 37 MBq, postmortem after imaging): 2.75 ± 0.74 %ID/g

Repeated from above:
CC(C)C[C@@H]1NC(=O)[C@H](CC(=O)O)NC(=O)CNC(=O)[C@H](CCCNC(=N)N)NC(=O)[C@H](Cc2ccccc2)NC(=O)[C@H](CCCCNC(=O)CCc2cn(CCCNC(=O)CN3CCN(CC(=O)O)CCN(CC(=O)O)CCN(CC(=O)O)CC3)nn2)N(C)C(=O)[C@H]2CCCN2C(=O)[C@H](Cc2ccccc2)NC(=O)[C@H](C)NC1=O — tissue-to-tissue ratio (female CB17 SCID mice, tumour and pancreas; intravenous, dose not given, 90 min, 177Lu-labelled; baseline: tumour over pancreas): 8.1 ± 4.1
